Assay results from different studies.
Each line is one published result; not all experiments were run side by side. Numbers after ± are the reported error.
B1: enzyme (Acinetobacter baumannii, UniProt A0A5P1UDB1); chain MFIEQDIQLGYVPFPKSRAQQYRDEGCWKSQTHFQLLASLKDRFAQRVAVIQDDKQLTYQQLYDYAIHYGTYLKQQGIRETDFVLLQSPNVIEVFIVIFGLYAIGARPVFCLHGHGSYEIENIARQSRAVGFLKLCGSANESTATDVCEEFSKPNFKLWFRESIVSRSSIEASLPQLQGVAPAFNLRAQSESEDIAFLQLSGGTTGLPKLIPRTHADYIYSIEKSVDVAGLTQDTKQLVVLPVMHNFCMSSPGFLGVFYVGGTVVLSQLTHPRVCFELIEKYQIQQVSLVPAIATLWLNAESLKDYDLSSLQVVQVGGAKLLPSLAEQIIDTLQVKLQQVYGMAEGLVNFTHLDDSDQITIQTQGKKLSHLDEIRIADQDGNALPINAIGHIQTRGPYTINGYYNLPEINQRAFTQDGFYKTGDIGYLDENLNIVVTGREKEQINRSGEKITPSEIEEFILQYPSVKDVCVIGVSDDYLGERIKAIIIPKLDDSEINLKNIRKFLISKNIAHFKIPDEIEVVADFKYTHVGKVNRQKLG
B2: enzyme (Pseudomonas poae, UniProt A0A2S9EJ63); chain MSTQHYDYIIVGGGSAGSVLANRLSAQADKRVLLIEAGADTPEHDTPTDILDGLQPWLPRLAGERYFWPGLNILRASEHGDIPREPQLYEQARILGGGSSVNMMVANRGLPRDYDEWARLGADGWDWQGVLPYFRKLERDLDFGHSHPEQHGQDGPIPIARVDSRHWGSFTRASAQALHTQGLNDIVDQNGRFEDGYFAPAVAIEHDQRVSSARAYLNAAVRARPNLSVWADTTVRQLTVKGQRVTGVQAVRDGRTVELAGDEVILAAGALQSPAFLLRAGIGPADQLRDLGIEVIADRPGVGRNLWDHSSIGLSASLHHPQVPSDEPGAAHLLAARVSSGVEPSVPGDLYLGIAPNAALGLASAVLWVNKPSSSGHLRLRSKDPADYPAVEFNLLSDRRDLERLRQGLRLLARVFAHPAVAAFSGPPRLSRFAQASNEGPLLSELLANDAQLERYLRTHVGGVWHASGTCRIGRADDPQAVVDHAGRVHGVQGLRVADASVFPSIPTANTNLPTLMIAEKIAEAILANA
B3: enzyme T339A (Arabidopsis thaliana, UniProt Q9LJK1); chain EKCQEWLERVDSVTYSRDFTKDPIFISGSNKDFKSCSVDCVMGFTSDKKPDAAFGLSHQPGTLSIIRSMESAQYYQENNLAQARRKGYDIVMTTSLSSDVPVGYFSWAEYDIMAPVQPKTEKALAAAFISNCAARNFRLQALEALMKTNVKIDSYGGCHRNRDGSVEKVEALKHYKFSLAFENTNEEDYVTEKFFQSLVAGSVPVVVGAPNIEEFAPSPDSFLHIKQMDDVKAVAKKMKYLADNPDAYNQALRWKHEGPSDSFKALIDMAAVHSSCRLCIFVATRIREQEEKSPEFKRRPCKCTRGSETVYHLYVRERGRFDMESIFLKDGNLTLEALESAVLAKFMSLRYEPIWKKERPASLRGDGKLRVHGIYPIGLTQRQALYNFKFEGNSSLSTHIQRNPCPKFEVVFV
B4: Slc22a5 (Mus musculus, UniProt Q9Z0E8); chain MRDYDEVTAFLGEWGPFQRLIFFLLSASIIPNGFNGMSIVFLAGTPEHRCLVPHTVNLSSAWRNHSIPLETKDGRQVPQKCRRYRLATIANFSELGLEPGRDVDLEQLEQESCLDGWEYDKDVFLSTIVTEWDLVCKDDWKAPLTTSLFFVGVLMGSFISGQLSDRFGRKNVLFLTMGMQTGFSFLQVFSVNFEMFTVLFVLVGMGQISNYVAAFVLGTEILSKSIRIIFATLGVCIFYAFGFMVLPLFAYFIRDWRMLLLALTVPGVLCGALWWFIPESPRWLISQGRIKEAEVIIRKAAKINGIVAPSTIFDPSELQDLNSTKPQLHHIYDLIRTRNIRVITIMSIILWLTISVGYFGLSLDTPNLHGDIYVNCFLLAAVEVPAYVLAWLLLQYLPRRYSISAALFLGGSVLLFMQLVPSELFYLSTALVMVGKFGITSAYSMVYVYTAELYPTVVRNMGVGVSSTASRLGSILSPYFVYLGAYDRFLPYILMGSLTILTAILTLFFPESFGVPLPDTIDQMLRVKGIKQWQIQSQTRMQKDGEESPTVLKSTAF
B5: enzyme C74S (UniProt A0A0P0CH59); chain MRIALFSDIHANLPALEAVLANMETQQLDAIYCLGDLVGYAPWPNEVVAEIRKRRIPTIAGNYDEGVGLWSPNSGCAYKTDTEKDLGQQSIDFTNNVVTEETRKYLRMLPRQLRLTFMDGSKEENKIELLLVHGSPRKINEYLFEDRPEKSFLKMMEEANADLLFFGHTHKPYHRAMPYEHEGQTRYRHAINIGSVGKPKDGDPRTGYVVVELTPESSLTQKDSIKVEFIRVPYDVETAAQAVEASPLPNEFAQMLRTA
B6: enzyme (Kluyveromyces lactis, UniProt Q6CSZ6); chain MSSLDINEQRALIKSAHRYISEKLEDHFSSEFLPKALVICGSGLSGISTKIADEPKPLILSYSTIPGFKVSTVPGHSGELIFGYMNGAPVVLMNGRLHSYEGHSLAETVHPIRALHLLGSINVLIVTNAAGGINASFKAGDLMCVYDHINFPGLCGFHPLRGANFDEFGPRFLATSDAYDLELRKLLFSKKKELNIERKIHEGTYSYVHGPTFESRAESRFLRLAGTDAVGMSTVPEVVTARHCGWRVLALSLITNECVVDPPASAHDENPVPIQEGKATHEEVLENSAKASKDVQELIFSVVAEI
Chain of UniProt Q9LRS0 (whole entry, looked up): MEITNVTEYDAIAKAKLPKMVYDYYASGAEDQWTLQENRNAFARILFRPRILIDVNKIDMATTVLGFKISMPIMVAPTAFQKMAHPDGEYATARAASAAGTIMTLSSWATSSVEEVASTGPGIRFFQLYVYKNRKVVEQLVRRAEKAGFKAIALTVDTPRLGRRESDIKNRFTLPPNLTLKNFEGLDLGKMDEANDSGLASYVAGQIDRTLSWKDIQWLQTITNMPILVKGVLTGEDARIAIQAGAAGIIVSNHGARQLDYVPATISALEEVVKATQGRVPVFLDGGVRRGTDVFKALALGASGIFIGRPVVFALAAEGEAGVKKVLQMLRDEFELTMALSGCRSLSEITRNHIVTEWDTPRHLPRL

| Molecule | target or system | assay | system | setting | scale | quantity | value |
| --- | --- | --- | --- | --- | --- | --- | --- |
| GSGAGQITKV | human MAGI1-2/6 PDZ construct (MBP fusion) | automated holdup | peptide, purified PDZ protein | concentration not given, unit not given | relative to: biotin control resin, higher = stronger binding | binding intensity | 0.0429 |
| HNL E79H/H103V/K236M/N104A/T11G (Hevea brasiliensis) | CC(=O)Oc1ccc([N+](=O)[O-])cc1 | steady-state kinetics |  | pH 7.2, 22 °C |  | Km | 420 µM |
| Rilpivirine docusate |  |  | buffer | pH 4.5 |  | equilibrium solubility | 0.1 ± 0.03 µg/mL |
| enzyme K46A (Homo sapiens, UniProt Q08623) | O=c1[nH]cc([C@@H]2O[C@H](COP(=O)(O)O)[C@@H](O)[C@H]2O)c(=O)[nH]1 | steady-state kinetics |  | pH 7, 25 °C |  | Km | 66 µM |
| B1 (enzyme) | O=C(O)c1cccc(O)c1O | steady-state kinetics |  | pH 7.5, 37 °C, apparent |  | Km | 20.6 µM |
| B2 (enzyme) | O=Cc1ccc(CO)o1 | steady-state kinetics |  | pH 8, 30 °C, added: 2 µM FAD |  | Km | 2250 µM |
| MTVCNASQRQAHAQATAVSL | H1650 lung adenocarcinoma/BAC | phage binding output/input | peptide |  | relative to: control phage | selectivity ratio | 1.4 ± 0.35 |
| GLO2 (Arabidopsis thaliana, UniProt Q9LRS0) | O=C(O)CO | steady-state kinetics |  |  |  | Km | 362 µM |
| B3 (enzyme T339A) | C[C@@H]1O[C@H](OP(=O)(O)OP(=O)(O)OC[C@H]2O[C@@H](n3cnc4c(=O)[nH]c(N)nc43)[C@H](O)[C@@H]2O)[C@@H](O)[C@H](O)[C@@H]1O | steady-state kinetics |  | pH 6.5, 30 °C |  | Km | 360 µM |
| B4 (Slc22a5) | COc1cc([C@@H]2c3cc4c(cc3[C@@H](O[C@@H]3O[C@@H]5CO[C@@H](C)O[C@H]5[C@H](O)[C@H]3O)[C@H]3COC(=O)[C@H]23)OCO4)cc(OC)c1O | steady-state kinetics |  | not purified |  | Km | 76.4 µM |
| B5 (enzyme C74S) | O=[N+]([O-])c1ccc(OP(=O)(O)O)cc1 | steady-state kinetics |  | pH 7, 37 °C, added: Ni2+ 0.25 mM |  | Km | 13700 µM |
| acsA D449E (Pseudomonas chlororaphis) | C#CCCC(=O)O | steady-state kinetics |  | pH 7 |  | Km | 500 µM |
| B6 (enzyme) | Nc1nc2c(ncn2[C@H]2C[C@H](O)[C@@H](CO)O2)c(=O)[nH]1 | steady-state kinetics |  |  |  | Km | 59 µM |
| ALLTWVTQV | Jurkat T cells expressing 1G4 TCR | NFAT-eGFP reporter, fluorescence microscopy | peptide | concentration not given, HLA-A*02:01 NY-ESO system |  | reporter activation | 24.7% |
| QLMPFGSLLDY | HLA class I histocompatibility antigen, A alpha chain, allele A*01:01 (Homo sapiens, UniProt P04439) | complex stability, off-rate | peptide | 37 °C |  | half-life of peptide-HLA complex | 36 min |

Repeated from above:
| Molecule | target or system | assay | system | setting | scale | quantity | value |
| --- | --- | --- | --- | --- | --- | --- | --- |
| B3 (enzyme T339A) | C[C@@H]1O[C@H](OP(=O)(O)OP(=O)(O)OC[C@H]2O[C@@H](n3cnc4c(=O)[nH]c(N)nc43)[C@H](O)[C@@H]2O)[C@@H](O)[C@H](O)[C@@H]1O | steady-state kinetics |  | pH 6.5, 30 °C |  | Km | 360 µM |
| B4 (Slc22a5) | COc1cc([C@@H]2c3cc4c(cc3[C@@H](O[C@@H]3O[C@@H]5CO[C@@H](C)O[C@H]5[C@H](O)[C@H]3O)[C@H]3COC(=O)[C@H]23)OCO4)cc(OC)c1O | steady-state kinetics |  | not purified |  | Km | 76.4 µM |
